Results of several laboratories.
Compare with care: the assays were run in different laboratories. Several values in a cell are separate wells, animals, samples, runs or records. ± marks the error that the study gave.

CCOc1cc(Oc2ccc(C(F)(F)F)cc2Cl)ccc1[N+](=O)[O-] — body weight gain (rat male; 3.25 mg/kg, 8 days): 67%
O=C(Nc1ccccc1)C1CCN(C(=O)Oc2cccnc2)CC1 — TEAE incidence (item: balance disorder; healthy female humans; concentration not given, safety set, all doses pooled): 8%
Clc1ccc(Cl)c(-c2cc(Cl)ccc2Cl)c1 — body weight (Sprague Dawley rat; intraperitoneal, 100 mg/kg, 3 weeks): 175 g
C[C@@H](NC(=O)N1C(=O)[C@H](Cc2ccnc(N)c2)[C@H]1C(=O)O)C1CCCCC1 — incidence of elevated neutrophil (healthy adult Chinese volunteers; continuous intravenous infusion, 2.25 mg/kg/h, 5-day infusion, CTCAE 5.0 grading): 0%
O[C@H]1CCCN[C@@H]1CCCn1cnc2c(Cl)c(Cl)ccc21 — CL/F (healthy human, plasma; oral, 150 mg, steady state, added: nintedanib 150 mg): 2490 mL/min
COc1ncccc1-c1cnn2ccc(N3CCN(C(=O)OC(C)C)CC3)nc12 — drug concentration (mouse nerve ligation model, brain; oral, 30 mg/kg, 180 min after last dose, repeat dosing day 1): 15 µM
c1cc2ccc3cccc4ccc(c1)c2c34 — literature range factor (PDMS-water partitioning; PAH compilation; relative to: maximum over minimum K): 3
CC(C)(c1ccccc1)c1cc(-n2nc3ccccc3n2)c(O)c(C(C)(C)c2ccccc2)c1 — mean daily dermal uptake (exposure assessment; human, age 16-21 years; spray sunscreen): 7.95 ng/kg body weight/day
CC(C)C[C@@H]1NC(=O)CNC(=O)[C@H](CC(N)=O)NC(=O)[C@H](CCCNC(=N)N)NC(=O)[C@H]([C@@H](C)O)NC(=O)[C@@H]2CSSC[C@@H]3NC(=O)[C@H]([C@@H](C)O)NC(=O)CNC(=O)CNC(=O)[C@H](CCCCN)NC(=O)[C@@H]4CSSC[C@H](NC(=O)[C@H]([C@@H](C)O)NC(=O)[C@H](CSSC[C@H](NC(=O)[C@H](C(C)C)NC(=O)[C@@H]5CCCN5C1=O)C(=O)NCC(=O)N[C@@H](CCC(=O)O)C(=O)N[C@@H]([C@@H](C)O)C(=O)N4)NC(=O)CNC(=O)[C@@H]1CCCN1C(=O)[C@H]([C@@H](C)O)NC(=O)[C@H](CC(N)=O)NC3=O)C(=O)N[C@@H](CO)C(=O)N[C@@H](Cc1c[nH]c3ccccc13)C(=O)N1CCC[C@H]1C(=O)N[C@@H](C(C)C)C(=O)N2 — remaining peptide (HPLC; ammonium bicarbonate; 180 µM, 7 days, pH 9.0, 25 °C, deamidation stability): 97.1 ± 0.1%
Clc1cc(Cl)c(-c2c(Cl)c(Cl)cc(Cl)c2Cl)cc1Cl — literature range factor (polyethylene-water partitioning; PCB compilation; relative to: maximum over minimum K): 1.2
COc1ncnn2ccc(-c3cnc4nc(C)n(Cc5nnc([C@@H](C)F)o5)c4c3)c12 — incidence of grade 1 creatinine increased (human patients; oral, dose not given): 7.1%
CC(C)[C@@H]1NC(=O)[C@@H]2CSSC[C@@H]3NC(=O)[C@H]([C@@H](C)O)NC(=O)[C@@H]4CSSC[C@H](NC(=O)[C@H](C(C)C)NC(=O)[C@@H]5CCCN5C(=O)[C@H](CCCCN)NC(=O)CNC(=O)[C@H](CC(N)=O)NC(=O)[C@H](CCCNC(=N)N)NC(=O)[C@H]([C@@H](C)O)NC(=O)[C@H](CSSC[C@H](NC(=O)[C@H]([C@@H](C)O)NC(=O)CNC(=O)CNC1=O)C(=O)N[C@@H](CC(N)=O)C(=O)N[C@@H]([C@@H](C)O)C(=O)N1CCC[C@H]1C(=O)NCC(=O)N4)NC(=O)[C@H](C(C)C)NC(=O)[C@@H]1CCCN1C(=O)[C@H](Cc1c[nH]c4ccccc14)NC(=O)[C@H](CO)NC3=O)C(=O)NCC(=O)N[C@@H](CCC(=O)O)C(=O)N[C@@H]([C@@H](C)O)C(=O)N2 — remaining peptide (HPLC; ammonium bicarbonate; 180 µM, 7 days, pH 9.0, 25 °C, deamidation stability): 92.8 ± 5.1%
CC(=O)c1c(C)c2cnc(Nc3ccc(C4CCN(CCS(C)(=O)=O)CC4)cn3)nc2n(C2CCCC2)c1=O — patients with GGT increased (HR+/HER2- advanced breast cancer patients; oral, dose not given, all grades, dose escalation, sample B patients): 21.1%
CO[C@H]1C[C@@H]2CC[C@@H](C)[C@@](O)(O2)C(=O)C(=O)N2CCCC[C@H]2C(=O)O[C@H]([C@H](C)C[C@@H]2CC[C@@H](OC(=O)NCCOCCOCCOCCOCCOCCOCCOCCOCCC(=O)N3CCc4cc(Cn5nc(-c6ccc7oc(N)nc7c6)c6c(N)ncnc65)ccc4C3)[C@H](OC)C2)C[C@@H](O)[C@H](C)/C=C(\C)[C@@H](O)[C@@H](OC)C(=O)[C@H](C)C[C@H](C)/C=C/C=C/C=C/1C — anaemia incidence (patients with advanced solid tumours; intravenous, 16 mg weekly, grade 3 or higher): 25%
Clc1ccccc1-c1ccccc1 — literature range factor (PDMS-water partitioning; PCB compilation; relative to: maximum over minimum K): 1.2
O=C(O)CCCOc1ccc(F)cc1-c1cc(-c2ccccc2C(F)(F)F)n(-c2ccccc2)n1 — leukocyte differential (item: Monocytes; Crl:CD(SD) rats, female, blood; iv, 25 µg/kg, 14 days): 2.5 ± 0.4%
CC[C@H](C)[C@@H]1NC(=O)[C@@H]2CSSC[C@H](NC(=O)[C@H](CCCNC(=N)N)NC(=O)[C@@H]3CSSC[C@H](NC1=O)C(=O)N[C@@H]([C@@H](C)O)C(=O)N[C@@H](CCCNC(=N)N)C(=O)NCC(=O)N[C@@H](Cc1ccccc1)C(=O)N3)C(=O)N[C@@H](CC(C)C)C(=O)N[C@H]1CSSC[C@H](NC(=O)[C@H](C(C)C)NC(=O)CNC(=O)[C@H](CCCNC(=N)N)NC(=O)[C@H](CCCNC(=N)N)NC1=O)C(=O)N[C@@H](CCCNC(=N)N)C(=O)N2 — mixed vein vasculitis score (Sprague-Dawley rats, male, lung; 10 mg/kg; direction not given): 2 to 3
C[C@H]1COCCN1c1nc(NCc2cccnc2C(F)(F)F)c2cccnc2n1 — BP change (conscious rat; intravenous, 30 mg/kg; relative to: control): -18.2%
CN[C@H]1CC[C@@H](c2ccc(Cl)c(Cl)c2)c2ccccc21 — Tmax (CD-1 mouse, male, plasma; intraperitoneal, 3 mg/kg): 0.5 h
O=S(=O)(Nc1ccccc1)c1ccc(NC(=S)Nc2ccccc2)cc1 — relative organ weight (mouse, male, large intestine; oral, 5 mg/kg daily, 14 days; relative to: body weight): 0.83%
NCCCC[C@@H]1NC(=O)[C@@H](Cc2c[nH]c3ccccc23)NC(=O)[C@H](c2ccccc2)NC(=O)[C@@H]2C[C@@H](OC(=O)NCCN)CN2C(=O)[C@H](Cc2ccccc2)NC(=O)[C@H](Cc2ccc(OCc3ccccc3)cc2)NC1=O — QTcI change from baseline (healthy volunteers; subcutaneous, 1950 µg twice daily, day 5, 0.00 h): 2.2 ms
CC[C@H](C)[C@H](NC(=O)[C@H](Cc1ccccc1)NC(=O)[C@H](CCC(=O)O)NC(=O)[C@H](CCCNC(=N)N)NC(=O)[C@H](C)NC(=O)[C@H](C)NC(=O)[C@H](CCC(N)=O)NC(=O)[C@H](CCC(=O)O)NC(=O)[C@H](CCC(=O)O)NC(=O)[C@H](CC(C)C)NC(=O)[C@H](Cc1ccc(O)cc1)NC(=O)[C@H](CO)NC(=O)[C@H](CO)NC(=O)[C@@H](NC(=O)[C@H](CC(=O)O)NC(=O)[C@H](CO)NC(=O)[C@@H](NC(=O)[C@H](Cc1ccccc1)NC(=O)[C@@H](NC(=O)CNC(=O)[C@H](CCC(=O)O)NC(=O)[C@H](C)NC(=O)CCc1cnc[nH]1)[C@@H](C)O)[C@@H](C)O)C(C)C)C(=O)N[C@@H](C)C(=O)N[C@@H](Cc1c[nH]c2ccccc12)C(=O)N[C@@H](CC(C)C)C(=O)N[C@H](C(=O)N[C@@H](CCCNC(=N)N)C(=O)NCC(=O)N[C@@H](CCCNC(=N)N)C(=O)N[C@@H](CCCCNC(=O)COCCOCCNC(=O)COCCOCCNC(=O)CC[C@H](NC(=O)CCCCCCCCCCCCCCCCC(=O)O)C(=O)O)C(=O)NCC(=O)NCC(=O)N[C@@H](CO)C(=O)N[C@@H](CCCCNC(=O)[C@H](CCCCNc1c(NCCCCCN(O)C(=O)CCC(=O)NCCCCCN(O)C(=O)CCC(=O)NCCCCCN(O)C(C)=O)c(=O)c1=O)Nc1c(NCCCCCN(O)C(=O)CCC(=O)NCCCCCN(O)C(=O)CCC(=O)NCCCCCN(O)C(C)=O)c(=O)c1=O)C(=O)O)C(C)C [zirconium-89 labelled] — tissue uptake (ex vivo gamma counting; Sprague-Dawley rat, male, intestine; intravenous, 1 nmol, 24 h): 0.223 %ID/g and 0.185 %ID/g and 0.163 %ID/g and 0.182 %ID/g and 0.211 %ID/g
O=C(Nc1ccccc1)C1CCN(C(=O)Oc2cccnc2)CC1 — adverse event Dizziness (healthy women; oral, 100 mg, 9 days): 76.9%
COc1cc2c(cc1OC)CN(CCc1ccc(NC(=O)c3cccc4c(=O)c5cccc(OC)c5[nH]c34)cc1)CC2 — Tmax (CD-1 mouse, male, lung; intraperitoneal, 0.3 mg/kg): 1 h
C[C@]1(CO)Cc2ncn(-c3ccc(C#N)c(Cl)c3)c2C(=O)O1 — TEAE incidence (human; concentration not given, European single ascending dose): 27.1%
CN1CCN(c2ccc(Nc3nccc(-c4cccc([N+](=O)[O-])c4)n3)cc2C(F)(F)F)CC1 — toxicity (zebrafish embryos; 25 µM, 5 d): 0%
O=[N+]([O-])c1ccc2c(c1)S(=O)(=O)C=C2 — CD45+ cells (flow cytometry; male C57BL/6 mice, spleen; i.p., 10 mg/kg, 8 days; relative to: splenocytes): 81%
COc1ccc2nc3cc(Cl)ccc3c(Nc3cc(CN4CCCC4)c(O)c(CN4CCCC4)c3)c2n1 — haematocrit (mouse, blood; intraperitoneal, 14 mg/kg): 40%
CC1(C)[C@H](C=C(Cl)Cl)[C@H]1C(=O)OCc1cccc(Oc2ccccc2)c1 — CLint (pooled human liver microsomes): 1.61 mL/min/mg protein
COc1cc2c(Oc3ccc4[nH]c(C)cc4c3F)ccnc2cc1OCC1(N)CC1 — grade 1 or 2 sinus bradycardia (paediatric recurrent refractory sarcoma; 10 mg): 25%
NC(=O)[C@H]1CCN(c2ncnc(N)c2F)C[C@@H]1N1CCC[C@@H](Nc2cc(Cl)cc(C(F)(F)F)c2)C1=O — grade ≥3 anaemia (B-cell malignancy patients; oral, 164 mg twice daily, dose): 25%
C[C@@H]1OC(=O)NN=C1c1ccc(-c2ccc(F)cc2)c(C(F)(F)F)c1 — patients with adverse event (phase I trial, item: abdominal distension worst grade 1; human patients; 5 mg loading then 0.25 mg daily): 0%
Clc1cc(Cl)c(-c2cc(Cl)c(Cl)cc2Cl)cc1Cl — literature range factor (PDMS-water partitioning; PCB compilation; relative to: maximum over minimum K): 3
CCN1CCN(Cc2ccc(Nc3ncc(F)c(-c4cc(F)c5nc6n(c5c4)[C@H](C)CCC6)n3)nc2)CC1 — Anemia incidence, any grade (advanced solid tumour patients; dose not given, Phase Ia monotherapy): 66.7%
CC(C)[C@H](N)C(=O)NCCCS(=O)(=O)O — MRT(0-inf) (human, plasma; oral, 265 mg twice daily, week 65, steady state): 2 h
COc1ccnc(C(=O)N[C@H]2COC(=O)[C@H](Cc3ccccc3)[C@@H](OC(=O)C(C)C)[C@H](C)OC2=O)c1OCOC(=O)C(C)C — storage stability (bovine fat; -18 °C): 9 months
CC(C)Nc1ccnc(Nc2cccc(-c3cccnc3)c2)n1 — blood chemistry (item: potassium; mouse, blood; intraperitoneal, 5 mg/kg): 9.69 mmol/L
O=C1Nc2cc3[nH]nc(-c4ccncc4)c3cc2CN1Cc1ccccc1 — patients with dyspnoea (CTCAE v4.03; advanced solid tumour patients; intravenous, 0.45 mg/kg, schedules 1/2): 0%
CN1CC[C@@H](c2c(O)cc(O)c3c(=O)cc(-c4ccc(C(F)(F)F)cc4Cl)oc23)[C@@H]1CO — patients with adverse event (item: Pneumonia; relapsed B-cell malignancies; oral, 100 mg, grade 3-4, intermittent dosing): 0%
Cn1ncc(-c2nc(N[C@H]3CC[C@H](N)CC3)ncc2Cl)c1CC1CC1 — platelet count decrease incidence (phase I dose escalation; human patients; dose not given, treatment-related grade 3 or higher): 3.2%

Excerpt of the above:
O=C(Nc1ccccc1)C1CCN(C(=O)Oc2cccnc2)CC1 — adverse event Dizziness (healthy women; oral, 100 mg, 9 days): 76.9%
O=C(O)CCCOc1ccc(F)cc1-c1cc(-c2ccccc2C(F)(F)F)n(-c2ccccc2)n1 — leukocyte differential (item: Monocytes; Crl:CD(SD) rats, female, blood; iv, 25 µg/kg, 14 days): 2.5 ± 0.4%
CC(=O)c1c(C)c2cnc(Nc3ccc(C4CCN(CCS(C)(=O)=O)CC4)cn3)nc2n(C2CCCC2)c1=O — patients with GGT increased (HR+/HER2- advanced breast cancer patients; oral, dose not given, all grades, dose escalation, sample B patients): 21.1%
COc1ncccc1-c1cnn2ccc(N3CCN(C(=O)OC(C)C)CC3)nc12 — drug concentration (mouse nerve ligation model, brain; oral, 30 mg/kg, 180 min after last dose, repeat dosing day 1): 15 µM
c1cc2ccc3cccc4ccc(c1)c2c34 — literature range factor (PDMS-water partitioning; PAH compilation; relative to: maximum over minimum K): 3
